Assay results pooled from the literature.
Compare with care: the assays were run in different laboratories. Numbers after ± are the reported error.
B1: UGT1A9 (Homo sapiens, UniProt O60656); chain GKLLVVPMDGSHWFTMRSVVEKLILRGHEVVVVMPEVSWQLGRSLNCTVKTYSTSYTLEDLDREFKAFAHAQWKAQVRSIYSLLMGSYNDIFDLFFSNCRSLFKDKKLVEYLKESSFDAVFLDPFDNCGLIVAKYFSLPSVVFARGILCHYLEEGAQCPAPLSYVPRILLGFSDAMTFKERVRNHIMHLEEHLLCHRFFKNALEIASEILQTPVTEYDLYSHTSIWLLRTDFVLDYPKPVMPNMIFIGGINCHQGKPLPMEFEAYINASGEHGIVVFSLGSMVSEIPEKKAMAIADALGKIPQTVLWRYTGTRPSNLANNTILVKWLPQNDLLGHPMTRAFITHAGSHGVYESICNGVPMVMMPLFGDQMDNAKRMETKGAGVTLNVLEMTSEDLENALKAVINDKSYKENIMRLSSLHKDRPVEPLDLAVFWVEFVMRHKGAPHLRPAAHDLTWYQYHSLDVIGFLLAVVLTVAFITFKCCAYGYRKCLGKKGRVKKAHKSKTH

Molecule | target or system | assay | test system | conditions | how to read | endpoint | value
ksi D40A/D103N (Pseudomonas putida) |  | UV-vis, item: Tyr57 |  | 25 °C |  | pKa | 8.3
insulin aspart |  | LC-MS/MS | healthy humans, plasma | subcutaneous, 0.2 IU/kg, 0 to 8 h, before propensity score matching |  | AUC | 562 ± 85 ng·h/mL
PRL (Homo sapiens, UniProt P01236) |  | NMR, item: His30 |  | 35 °C, 25 mM NaCl, microscopic; neighbours unprotonated, numbering of the source |  | pKa | 6
insulin degludec |  |  | human, end-stage renal disease |  | reference: before over after dialysis | CL/F ratio | 1.23
ksi D40N/D103A (Pseudomonas putida) |  | UV-vis, item: Tyr57 |  | 25 °C |  | pKa | 6.9
CSCC[C@H](NC(=O)[C@H](CC(C)C)NC(=O)[C@H](Cc1c[nH]cn1)NC(=O)CNC(=O)[C@@H](NC(=O)[C@H](C)NC(=O)[C@H](Cc1c[nH]c2ccccc12)NC(=O)[C@H](CCC(N)=O)NC(=O)CCCCCNC(=O)[C@H](CCC(=O)NCCCC[C@@H]1NC(=O)[C@@H](Cc2ccc(O)cc2)NC(=O)[C@H](CC(=O)O)NC(=O)CNC(=O)[C@H](CCCNC(=N)N)NC1=O)NC(=O)CN1CCN(CC(=O)O)CCN(CC(=O)O)CC1)C(C)C)C(N)=O [copper-64 labelled] |  |  | ICR SCID mouse, female, stomach | intravenous, 750 kBq, 4 h |  | tissue uptake | 0.96 ± 0.39 %ID/g
insulin aspart |  |  | obese type 2 diabetes patients | subcutaneous, 0.2 U/kg, glucose below 70 mg/dL |  | subjects with hypoglycaemia | 43.2%
B1 (UGT1A9) | O=c1cc(-c2ccccc2O)oc2cc(O)cc(O)c12 | steady-state kinetics |  | pH 7.4, 37 °C |  | Vmax | 0.000862 µmol/min/mg
teriparatide |  | ELISA | healthy women | sc, 20 µg single dose, reference product, arithmetic mean |  | AUC% extrapolated | 10.9 ± 5.54%
CC(C)[C@H](NC(=O)[C@@H]1CCCN1C(=O)[C@H](CCCNC(=N)N)NC(=O)[C@H](CS)NC(=O)[C@H](Cc1c[nH]c2ccccc12)NC(=O)[C@H](CCCNC(=N)N)NC(=O)[C@@H](Cc1ccccc1)NC(=O)[C@H](Cc1c[nH]cn1)NC(=O)[C@H](CCC(=O)O)NC(=O)[C@H](CS)NC(=O)[C@H](CS)NC(=O)[C@H](CCCCN)NC(=O)[C@@H]1CC(=O)N[C@@H](CCCNC(=N)N)C(=O)N[C@@H](C)C(=O)N[C@@H](CC(=O)O)C(=O)N[C@H](Cc2ccc(O)cc2)C(=O)N1)C(N)=O [technetium-99m labelled] |  |  | C57 mice, skin | intravenous, 0.037 MBq, 2 h |  | tissue uptake | 0.71 ± 0.25 %ID/g
ksi Y32A/D40R/F56A/D103A (Pseudomonas putida) |  | UV-vis, item: Tyr57 |  | 25 °C |  | pKa | > 10
insulin aspart |  |  | human, healthy | subcutaneous, 0.2 U/kg, 12 h | reference: reference insulin aspart (EU) | AUC ratio | 99.7%
N=C(N)NCCC[C@@H]1NC(=O)[C@H](CSC2CC(=O)N(CCNC(=O)CN3CCN(CC(=O)O)CCN(CC(=O)O)CCN(CC(=O)O)CC3)C2=O)NC(=O)[C@H](CCCCN)NC(=O)[C@@H](Cc2ccc(O)cc2)NC(=O)[C@H](CC(=O)O)NC(=O)CNC1=O (stereo partly drawn) [gallium-68 labelled] |  |  | ICR mouse, female, blood | intravenous, 5 MBq, 1 to 120 min, two-compartment model |  | elimination rate constant | 0.02 ± 0.01 min⁻¹
COc1cccc2c1C(=O)c1c(O)c3c(c(O)c1C2=O)C[C@@](O)(C(=O)CO)C[C@@H]3O[C@H]1C[C@H](NC(=O)[C@@H]2CCCN2C(=O)CN)[C@H](O)[C@H](C)O1 |  |  | mouse, E0771 tumour-bearing, plasma | intravenous, 92 µmol/kg PhAc-ALGP-Dox |  | Tmax | 5 min
ACEEQNPWARYLEWLFPTETLLLEL |  | ex vivo fluorescence | peptide, BALB/c mouse, 4T1 mammary tumour, tumour vs muscle | 4 h | reference: tumour over muscle | contrast index | 5
COc1cccc2c1C(=O)c1c(O)c3c(c(O)c1C2=O)C[C@@](O)(C(=O)CO)C[C@@H]3O[C@H]1C[C@H](NC(=O)[C@@H]2CCCN2C(=O)CNC(=O)[C@@H](N)CC(C)C)[C@H](O)[C@H](C)O1 |  |  | mouse, E0771 tumour-bearing, plasma | intravenous, 92 µmol/kg PhAc-ALGP-Dox |  | Tmax | 5 min
Insulin human |  |  | rat, thalamus/hypothalamus | intranasal, 20 µg per nostril, 120 min |  | brain concentration | 8.7 ± 8.7 pg/mg tissue
insulin aspart |  |  | plasma | sc, 0.2 U/kg, 0-90 min |  | AUC of insulin increment | 4340 ± 441 µU·min/mL

Repeated from above:
Molecule | target or system | assay | test system | conditions | how to read | endpoint | value
COc1cccc2c1C(=O)c1c(O)c3c(c(O)c1C2=O)C[C@@](O)(C(=O)CO)C[C@@H]3O[C@H]1C[C@H](NC(=O)[C@@H]2CCCN2C(=O)CNC(=O)[C@@H](N)CC(C)C)[C@H](O)[C@H](C)O1 |  |  | mouse, E0771 tumour-bearing, plasma | intravenous, 92 µmol/kg PhAc-ALGP-Dox |  | Tmax | 5 min
insulin aspart |  |  | human, healthy | subcutaneous, 0.2 U/kg, 12 h | reference: reference insulin aspart (EU) | AUC ratio | 99.7%
CC(C)[C@H](NC(=O)[C@@H]1CCCN1C(=O)[C@H](CCCNC(=N)N)NC(=O)[C@H](CS)NC(=O)[C@H](Cc1c[nH]c2ccccc12)NC(=O)[C@H](CCCNC(=N)N)NC(=O)[C@@H](Cc1ccccc1)NC(=O)[C@H](Cc1c[nH]cn1)NC(=O)[C@H](CCC(=O)O)NC(=O)[C@H](CS)NC(=O)[C@H](CS)NC(=O)[C@H](CCCCN)NC(=O)[C@@H]1CC(=O)N[C@@H](CCCNC(=N)N)C(=O)N[C@@H](C)C(=O)N[C@@H](CC(=O)O)C(=O)N[C@H](Cc2ccc(O)cc2)C(=O)N1)C(N)=O [technetium-99m labelled] |  |  | C57 mice, skin | intravenous, 0.037 MBq, 2 h |  | tissue uptake | 0.71 ± 0.25 %ID/g
